Measurements gathered from unrelated publications.
Each line is one published result; not all experiments were run side by side. ≈ marks a conversion by molar mass, not a printed value.

For CN(C)C(=O)c1ccnc(N2Cc3cn(Cc4ccc(Cl)cc4)nc3C2)n1, the solubility was greater than 100 µM (water).
With Cc1nc(-c2ccncc2)sc1C(=O)NC(C(=O)Nc1cccc(C(N)=O)c1)c1ccc(OCc2ccccc2)cc1 (stereo not drawn) the thermodynamic solubility was less than 0.34 µg/mL (PBS; pH 7.4).
For COc1cccc2c(NCc3ccccc3)nc(Nc3cccc(Cl)c3)nc12, the solubility was 0.05 µg/mL (aqueous buffer; pH 6.2).
The solubility of OCC1OC(n2cnc3c(NCc4ccc(Br)s4)ncnc32)C(O)C1O (stereo not drawn) is reported as 7600 µg/mL (simulated gastric fluid; pH 1.2, acidic).
CC[C@H](C)[C@@H]1NC(=O)[C@H](Cc2ccc(O)cc2)NC(=O)CSC[C@@H](C(N)=O)NC(=O)[C@H](CC(N)=O)NC(=O)[C@H](Cc2c[nH]cn2)NC(=O)[C@H](Cc2ccc(O)cc2)NC(=O)[C@H](CC(=O)O)NC(=O)[C@H](Cc2ccc(F)c(F)c2)NC(=O)[C@H](CC(C)C)NC(=O)[C@H](CCCNC(=N)N)NC1=O has a kinetic solubility of 136 µM (≈ 193 µg/mL) (PBS; pH 7.4).
For CC1(C)CN(C(=O)Cn2c(=O)c(C(=O)NCc3ccc(Cl)cc3)cc3cccnc32)C1, the thermodynamic solubility was less than 1.56 µM (aqueous buffer; 24 h, pH 7.4, 37 °C).
COc1cccc2c(NCc3ccccc3)nc(Nc3cccc(F)c3)nc12 gave a solubility of less than 0.01 µg/mL (aqueous buffer; pH 6.2).
With CN(C)C(=O)c1cccc(N2Cc3cn(Cc4ccc(F)c(F)c4)nc3C2)c1 the solubility was 20 µM (water).
CN1CCCN(c2cnc3c(cc(C(=O)NCc4ccc(Cl)cc4)c(=O)n3CC(=O)N3CC(C)(F)C3)n2)C1=O has a thermodynamic solubility of less than 1.56 µM (aqueous buffer; 24 h, pH 7.4, 37 °C).

A few entries again:
The solubility of OCC1OC(n2cnc3c(NCc4ccc(Br)s4)ncnc32)C(O)C1O (stereo not drawn) is reported as 7600 µg/mL (simulated gastric fluid; pH 1.2, acidic).
With Cc1nc(-c2ccncc2)sc1C(=O)NC(C(=O)Nc1cccc(C(N)=O)c1)c1ccc(OCc2ccccc2)cc1 (stereo not drawn) the thermodynamic solubility was less than 0.34 µg/mL (PBS; pH 7.4).
